Assay results collected from several papers.
Parts stem from different laboratories: compare values within a part only.

Series 1 — technique: protein-binding microarray; form: double-stranded DNA, one strand shown; medium: in vitro; concentration: 0.8 µM; notes: whole 60-bp probe, no competitor; reading: higher = stronger binding; measurement: fluorescence intensity; shared flanks, not repeated: … GTCTTGATTCGCTTGACGCTGCTG
Target: Centromere-binding protein 1, full length, N-terminal tag (CBF1, Saccharomyces cerevisiae, UniProt P17106, residues 1-351)
UniProt P17106, sequence (whole entry, looked up): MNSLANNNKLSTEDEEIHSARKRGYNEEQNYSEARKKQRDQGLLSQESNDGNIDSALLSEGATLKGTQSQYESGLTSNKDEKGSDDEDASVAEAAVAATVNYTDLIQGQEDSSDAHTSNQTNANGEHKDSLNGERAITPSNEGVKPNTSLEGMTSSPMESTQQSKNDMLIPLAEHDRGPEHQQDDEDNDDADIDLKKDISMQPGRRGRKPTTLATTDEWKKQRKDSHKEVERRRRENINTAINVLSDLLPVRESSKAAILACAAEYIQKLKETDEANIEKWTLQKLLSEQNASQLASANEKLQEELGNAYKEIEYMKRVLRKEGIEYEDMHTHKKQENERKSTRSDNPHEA
CTACTTTCTGATCATCACCCCTTATTGCCTCAGTTC: 868 a.u.
GAATTAACTAGACGTCATGCGTATTGATTAACTTAG: 647 a.u.
GAACTCCGGCCATCGTGGGTGACATTCGTATAGTAG: 498 a.u.
GAACTACACCTGACTCACATGACAGCATTTCCTTAG: 2050 a.u.
GAAGATCTTTAAAAGGTGATGAAAGATGCACCATAG: 542 a.u.
CTAGTCACCAGTCATCATGAAAAGTGCACTGCATTC: 508 a.u.
GAAATCACGCCACATCACGTGCACATTACTAGTTAG: 12200 a.u.
GAACAAATGTGCTCAGCTGTGATTCATTGAAATTAG: 523 a.u.
GAATTTTCTCAACGTGACTGGAGTAACGTAATATAG: 3360 a.u.
GAAAAGTGGATCGAGAACGTGTCAAAGATTCCGTAG: 600 a.u.
CTACCCTGAATATTGCATGTGATTCGTAAAGAATTC: 2780 a.u.
CCTAACTACTATAGTCACATAATATAGCTTCGTACA: 590 a.u.
TGTACGAAGCTATTACACGTTACTATAGTAGTTAGG: 589 a.u.
GAACATGCGTTTGATCATCTGACCTTTATGATTTAG: 2760 a.u.
TGTACGAAGCTATCACATGACACTATAGTAGTTAGG: 4620 a.u.
GAAAACTTGTTATTCAGCGTGAAGAACGATATTTAG: 536 a.u.
GAAGTTCTACATGTACTCGTGCTTTCTTTATTGTAG: 664 a.u.
CTATATTTGCTCAATGGTGTCACTTCCCGTTTTTTC: 557 a.u.
GAATGGCGTATGGGCGACGTGCGTCCATGCAAATAG: 523 a.u.

Series 2 — technique: RNA Bind-n-Seq; form: RNA; medium: in vitro; concentration: 365 nM; reference: no-protein control; reading: higher = stronger binding; measurement: RBNS enrichment (R)
Target: RNA binding protein fox-1 homolog 2, RRM domain, GST-SBP tag (RBFOX2, Homo sapiens, UniProt O43251-10, residues 100-194)
Notes: natural RNA segment, single round, ends assumed
Shared flanks, not repeated: GGGAGUUCUACAGUCCGACGAUC … UGGAAUUCUCGGGUGCCAA
Residues (chain): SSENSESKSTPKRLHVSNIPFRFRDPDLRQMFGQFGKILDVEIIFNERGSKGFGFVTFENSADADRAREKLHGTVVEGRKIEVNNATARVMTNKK
AUGGAUUUCAUGUGUUACAAUAUCAGUUUCCAGAAUAAAGUGAGGGAAAUCAGGUCUUUAUUGAUAAAGUUAGGGAGAAGAUUGAUGCAAUAGGACAAUUUCCAAUUUAA: 0.851
GGUUGUUGAAAACUAAUUGUAUUAAAUGUCUUUUGAUAAGCCUUCUGCUCACACUUUUGUGACUGUCUGAAGUAUAUAGUUUGUGUAUAUUGAUAGAGCUCUUUUAUAAC: 0.586
AGGAGACCAGUCAUGAGUACCAAGGAAUUUGUCAGCUUGGUUCUAGAACUUAGCAGAGGUUGAGCUCUGCUGCACAUUGGCAGACCAGGUCAGGAUGUCUGCAGUUGGAG: 0.851
UCAUUCCUGGCAAUUCCCUCCCAAUCCUGCAGGUGCAACCUGCCAGGCCUGGGCCAUUGUCCUCAUCCUGUAGUCAGGGAUCAGGCAUGGGUUUUGAUUUCAGUUUUCCC: 0.268
GCUAGGUUGCUAGAGACUGCGGUUAGUGCAGAACAGAGGUAAGCCUAAGUCCCAUCCUCAUGAACUUCAAUGCCCAGCCUUUGUGUUUAUUUUAUCUAAAUGUCUCCUUU: 0.297
UUGACAUGCGUGCCCCGAUGCCACCAUAGCCCCUAGGCCAACAAUGUCAUGGUCUAAACACCAAAAAGUGAUGCCCCGCAUUCCUUCCCUGGAUGGUACCGUUUCUUCUC: 0.25
AGAAAGAAAGAAAGAAAGACAGCAAAGCCUGAAUUCUUUUUGAGAGAUGGAGAUGAGGUACAUCAGGGGACCUUAAGAUGCCUGAGCCCAUCUUUUAACUCUAACACAGG: 0.636
AUCAUUUGAAAAAUGUAUCUAAAAUAAUCCAGAGAACAUAAUGUUUGUCUUGGUCUGAUAAUGAUAAGAAGUCAAGGAUUGGCAGAGAAAAUACUAAACGCCAAGAGUUG: 0.527

Series 3 — technique: protein-binding microarray; form: double-stranded DNA, one strand shown; medium: in vitro; concentration: 250 nM; notes: 60-bp whole probe; with: salmon DNA 0.4 mg/ml; reference: random background probes; reading: higher = stronger binding; measurement: log fluorescence; shared flanks, not repeated: GCCTAGCAC … GTCTTGATTCGCTTGACGCTGCTG
Target: Interferon regulatory factor 5, full length, phosphomimetic (IRF5, Homo sapiens, UniProt Q13568-2, residues 1-514, K96S/S451D/S453D/S456D/S462D)
TTCGGTATCGACACTGGGTTAGTGCTA: 3.69 z-score
GACAATATCAGTCTCGAGACGTGCTAG: 1.26 z-score
TTAGGTTTCCTACTTCTTTAGTGCTAG: 0.772 z-score
TTAGATATCGGATATCGATTAGTGCTA: 3.43 z-score
GACGATATCAGATTCGAGACGTGCTAG: 0.777 z-score
TCATGTCTGGATGTGCCACTGTGCTAG: 0.0102 z-score
CACGGTTTCGGACTGGGGACGTGCTAG: 3.66 z-score
TTAGGTTTCAACACTGGGTTAGTGCTA: 0.872 z-score
GACGGTCTCCTTTTCGTGACGTGCTAG: 0.107 z-score
GACGATATAAGTCTCGAGACGTGCTAG: 0.595 z-score
TCATTTCTTTAACTCATACTGTGCTAG: 0.971 z-score
TCACCTTTCAGTTTTCCACTGTGCTAG: 2.43 z-score
TCAAATTTATAAATAAAACTGTGCTAG: 0.462 z-score
TTAGGAGTGGACTTTCGGTTAGTGCTA: 9.58 z-score
GATGATATCAGTCTCGAGACGTGCTAG: 1.53 z-score
CACGGTATCGGGTTTCGGGACGTGCTA: 3.86 z-score
TAAGATATCAGACTGGATTAGTGCTAG: 0.325 z-score
GGCAATTTGAGTCACTGTGTGTGCTAG: -0.455 z-score
TCAGTTTTCAATTTTTGACTGTGCTAG: 1.48 z-score

Series 4 — technique: protein binding microarray; form: double-stranded DNA, one strand shown; medium: in vitro; concentration: not given; reference: not given; reading: higher = stronger binding; measurement: E-score
Target: Histone acetyltransferase KAT6A, winged helix 1, GST fusion (KAT6A, Homo sapiens, UniProt Q92794, residues 1-85)
Notes: 8-mer, flanks averaged, mean of 2 arrays, mostly near background
Construct (chain): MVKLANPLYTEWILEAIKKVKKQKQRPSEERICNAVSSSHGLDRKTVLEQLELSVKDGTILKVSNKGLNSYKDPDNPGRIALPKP
CGTTATAA: 0.123
AATCCACA: -0.156
CTTAGTAA: 0.00455
CTCGCACC: -0.0568
GTGAGTAA: -0.157
TAAATGGA: -0.185
CACTATGA: -0.0875
AAGGGCTA: -0.0987
CCCGGCGA: 0.35
TACTGATA: -0.0951
AAGAATAA: -0.123
CATGGTCA: -0.0113
CCTCTTAC: -0.188
CGGCATCC: 0.271
GTTGCGCA: 0.19
AAACGCCA: -0.144
AGCCTACA: -0.252
ACACGAAA: 0.0751
ACTATTGA: -0.0938
AGGGCGAG: -0.0359
AGTTTAAT: -0.0758
CGGAAGTC: 0.304

A few entries again (series 2):
AUGGAUUUCAUGUGUUACAAUAUCAGUUUCCAGAAUAAAGUGAGGGAAAUCAGGUCUUUAUUGAUAAAGUUAGGGAGAAGAUUGAUGCAAUAGGACAAUUUCCAAUUUAA: 0.851
GGUUGUUGAAAACUAAUUGUAUUAAAUGUCUUUUGAUAAGCCUUCUGCUCACACUUUUGUGACUGUCUGAAGUAUAUAGUUUGUGUAUAUUGAUAGAGCUCUUUUAUAAC: 0.586
AGGAGACCAGUCAUGAGUACCAAGGAAUUUGUCAGCUUGGUUCUAGAACUUAGCAGAGGUUGAGCUCUGCUGCACAUUGGCAGACCAGGUCAGGAUGUCUGCAGUUGGAG: 0.851
UCAUUCCUGGCAAUUCCCUCCCAAUCCUGCAGGUGCAACCUGCCAGGCCUGGGCCAUUGUCCUCAUCCUGUAGUCAGGGAUCAGGCAUGGGUUUUGAUUUCAGUUUUCCC: 0.268
GCUAGGUUGCUAGAGACUGCGGUUAGUGCAGAACAGAGGUAAGCCUAAGUCCCAUCCUCAUGAACUUCAAUGCCCAGCCUUUGUGUUUAUUUUAUCUAAAUGUCUCCUUU: 0.297
UUGACAUGCGUGCCCCGAUGCCACCAUAGCCCCUAGGCCAACAAUGUCAUGGUCUAAACACCAAAAAGUGAUGCCCCGCAUUCCUUCCCUGGAUGGUACCGUUUCUUCUC: 0.25
AGAAAGAAAGAAAGAAAGACAGCAAAGCCUGAAUUCUUUUUGAGAGAUGGAGAUGAGGUACAUCAGGGGACCUUAAGAUGCCUGAGCCCAUCUUUUAACUCUAACACAGG: 0.636
AUCAUUUGAAAAAUGUAUCUAAAAUAAUCCAGAGAACAUAAUGUUUGUCUUGGUCUGAUAAUGAUAAGAAGUCAAGGAUUGGCAGAGAAAAUACUAAACGCCAAGAGUUG: 0.527
